Measured values from different studies.
Parts stem from different laboratories: compare values within a part only.
UniProt O75460, sequence (whole entry, looked up): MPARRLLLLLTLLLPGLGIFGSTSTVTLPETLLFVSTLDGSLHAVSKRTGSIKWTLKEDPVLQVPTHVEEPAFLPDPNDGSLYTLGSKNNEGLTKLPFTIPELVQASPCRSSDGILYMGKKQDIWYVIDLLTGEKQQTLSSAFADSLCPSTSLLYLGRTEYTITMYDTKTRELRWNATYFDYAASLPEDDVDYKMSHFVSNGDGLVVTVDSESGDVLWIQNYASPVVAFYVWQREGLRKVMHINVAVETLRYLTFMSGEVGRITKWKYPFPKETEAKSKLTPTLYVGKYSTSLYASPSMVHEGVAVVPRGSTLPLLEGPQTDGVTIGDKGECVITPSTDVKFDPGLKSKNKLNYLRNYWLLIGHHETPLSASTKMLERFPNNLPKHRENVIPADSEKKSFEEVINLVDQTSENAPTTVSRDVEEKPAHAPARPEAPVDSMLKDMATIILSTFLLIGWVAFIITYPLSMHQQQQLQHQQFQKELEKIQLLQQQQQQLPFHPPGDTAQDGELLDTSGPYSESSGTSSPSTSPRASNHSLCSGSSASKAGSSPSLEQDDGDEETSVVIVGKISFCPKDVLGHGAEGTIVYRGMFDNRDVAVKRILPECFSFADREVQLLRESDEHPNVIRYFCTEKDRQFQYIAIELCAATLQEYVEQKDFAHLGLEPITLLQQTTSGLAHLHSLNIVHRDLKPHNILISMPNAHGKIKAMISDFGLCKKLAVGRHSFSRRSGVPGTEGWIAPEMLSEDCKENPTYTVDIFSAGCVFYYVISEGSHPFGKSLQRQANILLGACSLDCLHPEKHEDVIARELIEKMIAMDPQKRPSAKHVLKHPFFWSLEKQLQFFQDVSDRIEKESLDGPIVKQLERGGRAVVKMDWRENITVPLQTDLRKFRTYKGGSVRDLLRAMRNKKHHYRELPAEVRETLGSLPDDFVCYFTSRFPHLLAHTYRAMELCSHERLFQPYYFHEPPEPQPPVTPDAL
UniProt P36896, sequence (whole entry, looked up): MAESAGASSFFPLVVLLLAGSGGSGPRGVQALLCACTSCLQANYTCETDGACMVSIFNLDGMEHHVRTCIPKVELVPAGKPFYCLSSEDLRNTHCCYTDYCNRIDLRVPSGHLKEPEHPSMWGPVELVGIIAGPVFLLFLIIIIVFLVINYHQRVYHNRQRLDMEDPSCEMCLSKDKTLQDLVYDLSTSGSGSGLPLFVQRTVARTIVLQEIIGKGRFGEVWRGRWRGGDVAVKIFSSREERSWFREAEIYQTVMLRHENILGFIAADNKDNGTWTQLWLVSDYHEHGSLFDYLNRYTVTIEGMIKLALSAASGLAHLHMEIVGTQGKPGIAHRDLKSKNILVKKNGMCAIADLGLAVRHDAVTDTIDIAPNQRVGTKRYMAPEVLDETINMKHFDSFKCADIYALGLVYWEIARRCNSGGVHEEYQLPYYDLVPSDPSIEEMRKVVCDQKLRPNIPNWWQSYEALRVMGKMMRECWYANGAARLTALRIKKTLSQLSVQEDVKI
UniProt P00519, sequence (whole entry, looked up): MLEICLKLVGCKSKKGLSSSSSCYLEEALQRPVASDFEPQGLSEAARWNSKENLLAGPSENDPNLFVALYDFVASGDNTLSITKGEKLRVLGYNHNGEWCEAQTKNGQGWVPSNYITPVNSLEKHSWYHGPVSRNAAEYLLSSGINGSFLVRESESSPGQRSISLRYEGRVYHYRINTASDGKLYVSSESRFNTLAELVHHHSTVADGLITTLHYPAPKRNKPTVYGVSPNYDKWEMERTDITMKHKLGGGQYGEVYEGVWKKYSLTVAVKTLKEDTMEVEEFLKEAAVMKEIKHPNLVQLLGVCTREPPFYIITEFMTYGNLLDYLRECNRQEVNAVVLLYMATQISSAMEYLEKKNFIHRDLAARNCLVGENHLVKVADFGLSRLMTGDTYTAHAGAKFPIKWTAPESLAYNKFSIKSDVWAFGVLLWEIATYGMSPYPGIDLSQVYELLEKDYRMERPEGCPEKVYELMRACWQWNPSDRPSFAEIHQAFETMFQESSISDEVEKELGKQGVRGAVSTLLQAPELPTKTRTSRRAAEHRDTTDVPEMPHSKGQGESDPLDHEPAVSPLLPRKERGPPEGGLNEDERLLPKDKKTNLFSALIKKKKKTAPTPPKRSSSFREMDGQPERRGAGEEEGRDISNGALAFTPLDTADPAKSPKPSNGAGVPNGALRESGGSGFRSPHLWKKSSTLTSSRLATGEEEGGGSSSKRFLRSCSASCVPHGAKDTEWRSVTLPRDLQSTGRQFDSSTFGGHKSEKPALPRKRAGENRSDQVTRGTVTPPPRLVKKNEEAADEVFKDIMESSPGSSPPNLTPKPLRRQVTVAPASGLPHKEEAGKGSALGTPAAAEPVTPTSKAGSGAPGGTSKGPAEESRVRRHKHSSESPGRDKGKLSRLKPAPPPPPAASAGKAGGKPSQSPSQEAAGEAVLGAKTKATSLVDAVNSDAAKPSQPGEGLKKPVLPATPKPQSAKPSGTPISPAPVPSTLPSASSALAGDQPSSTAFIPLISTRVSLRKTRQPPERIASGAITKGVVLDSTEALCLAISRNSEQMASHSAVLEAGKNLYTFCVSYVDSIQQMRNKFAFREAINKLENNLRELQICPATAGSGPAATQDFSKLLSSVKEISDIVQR
UniProt Q96Q40, sequence (whole entry, looked up): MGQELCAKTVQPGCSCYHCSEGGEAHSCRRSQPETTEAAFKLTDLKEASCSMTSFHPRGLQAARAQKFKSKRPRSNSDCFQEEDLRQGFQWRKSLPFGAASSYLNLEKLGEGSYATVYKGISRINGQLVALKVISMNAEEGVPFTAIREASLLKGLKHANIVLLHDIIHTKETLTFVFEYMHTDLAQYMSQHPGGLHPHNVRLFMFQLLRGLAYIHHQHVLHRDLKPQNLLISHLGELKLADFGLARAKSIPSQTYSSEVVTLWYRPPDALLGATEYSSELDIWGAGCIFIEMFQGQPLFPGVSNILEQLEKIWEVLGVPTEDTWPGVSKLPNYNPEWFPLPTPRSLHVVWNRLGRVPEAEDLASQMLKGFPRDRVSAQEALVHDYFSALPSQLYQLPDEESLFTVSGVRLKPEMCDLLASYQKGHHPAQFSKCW
UniProt Q15208, sequence (whole entry, looked up): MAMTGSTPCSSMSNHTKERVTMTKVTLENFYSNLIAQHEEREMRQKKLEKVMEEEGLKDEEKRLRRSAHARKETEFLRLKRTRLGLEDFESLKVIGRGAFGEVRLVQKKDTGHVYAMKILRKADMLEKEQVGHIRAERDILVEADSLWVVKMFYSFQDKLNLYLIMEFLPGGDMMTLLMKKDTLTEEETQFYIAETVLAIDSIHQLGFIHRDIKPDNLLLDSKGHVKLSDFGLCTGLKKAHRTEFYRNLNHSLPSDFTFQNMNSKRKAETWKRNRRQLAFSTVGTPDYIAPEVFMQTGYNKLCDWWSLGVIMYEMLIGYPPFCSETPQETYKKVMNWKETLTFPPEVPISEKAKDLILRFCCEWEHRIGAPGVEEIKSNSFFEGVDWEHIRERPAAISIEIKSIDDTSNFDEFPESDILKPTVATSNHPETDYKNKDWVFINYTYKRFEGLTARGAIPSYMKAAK
UniProt P53778, sequence (whole entry, looked up): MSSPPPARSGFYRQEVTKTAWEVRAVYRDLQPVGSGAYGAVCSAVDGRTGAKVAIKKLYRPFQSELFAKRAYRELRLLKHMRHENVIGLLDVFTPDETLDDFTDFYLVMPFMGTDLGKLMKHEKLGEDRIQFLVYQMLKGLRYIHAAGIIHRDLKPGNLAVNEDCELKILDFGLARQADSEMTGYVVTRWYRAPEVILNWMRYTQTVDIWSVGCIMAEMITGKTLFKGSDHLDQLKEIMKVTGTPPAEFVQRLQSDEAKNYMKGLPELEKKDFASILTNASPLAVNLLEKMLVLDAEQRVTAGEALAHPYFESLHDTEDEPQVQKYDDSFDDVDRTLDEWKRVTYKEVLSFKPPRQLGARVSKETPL
UniProt Q99755, sequence (whole entry, looked up): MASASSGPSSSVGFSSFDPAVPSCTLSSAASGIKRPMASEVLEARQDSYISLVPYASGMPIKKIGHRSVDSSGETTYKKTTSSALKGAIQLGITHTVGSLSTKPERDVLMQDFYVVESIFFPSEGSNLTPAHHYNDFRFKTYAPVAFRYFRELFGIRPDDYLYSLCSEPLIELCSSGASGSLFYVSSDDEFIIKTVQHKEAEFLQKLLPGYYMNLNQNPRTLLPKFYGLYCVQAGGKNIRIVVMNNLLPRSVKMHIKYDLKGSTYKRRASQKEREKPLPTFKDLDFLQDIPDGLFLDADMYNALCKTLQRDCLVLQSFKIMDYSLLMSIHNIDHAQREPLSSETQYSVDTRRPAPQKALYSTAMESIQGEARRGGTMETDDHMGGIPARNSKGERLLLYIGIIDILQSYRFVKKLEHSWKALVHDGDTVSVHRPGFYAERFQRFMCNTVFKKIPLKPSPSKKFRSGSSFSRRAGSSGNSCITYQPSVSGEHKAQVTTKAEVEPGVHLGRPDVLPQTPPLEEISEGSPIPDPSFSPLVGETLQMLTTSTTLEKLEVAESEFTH
UniProt P68400, sequence (whole entry, looked up): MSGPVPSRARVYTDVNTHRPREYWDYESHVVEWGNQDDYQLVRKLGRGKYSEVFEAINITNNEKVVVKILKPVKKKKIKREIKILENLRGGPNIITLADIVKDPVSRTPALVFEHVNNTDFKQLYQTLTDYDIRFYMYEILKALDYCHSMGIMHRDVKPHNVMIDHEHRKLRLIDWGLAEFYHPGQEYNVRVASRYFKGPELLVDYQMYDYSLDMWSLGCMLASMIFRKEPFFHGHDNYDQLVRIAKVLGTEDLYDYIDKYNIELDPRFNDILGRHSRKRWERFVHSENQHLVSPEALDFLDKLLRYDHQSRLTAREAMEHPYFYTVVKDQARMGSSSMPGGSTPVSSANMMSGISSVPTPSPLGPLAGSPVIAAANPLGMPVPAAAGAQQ

Set 1
Species: human
Medium: microsomes or S9
Tested at: 2 µM
Time: 0.5 h
`O=C(Nc1cc(Br)cc2c1N(c1ncccn1)CC2)c1ccccc1` has a remaining compound of 4.93%.
With `COc1ccc(C2(CNC(=O)C(F)(F)F)CCCCC2)cc1` the remaining compound was 3.54%.
`CC(C)(CO)NCc1ccc(-c2cc(Cl)cc(Cl)c2)o1` gave a remaining compound of 69.8%.

Set 2
Cell line: mouse MPNST tumor cells
Technique: high-content nuclear imaging
Measured: cell number
Tested at: 10 µM
Time: 12 h
Notes: mean of 2 replicates
Relative to: plate mean
Direction: higher = more cells
`COc1cc(C(=O)NC2CCCNC2)cc(OC)c1OC` (stereo not shown) has a nuclei count of 1.3 z-score.
The nuclei count of `COC(=O)C1=C(C#N)NC(C)=C(C(=O)OC(C)C)C1c1cccc([N+](=O)[O-])c1` (stereo not shown) is reported as -0.299 z-score.
The nuclei count of `Clc1cc2c(NC3CCCC3)nnc(-c3ccncc3)c2cc1Cl` is reported as 1.65 z-score.
The nuclei count of `CCOC(=O)C1=C(N2CCCCC2)C2(CC1=O)C(=O)N=C1C(C)=CC=CN12` (stereo not shown) is reported as 2.4 z-score.
`Clc1cccc(Cl)c1NC1=NCCN1` gave a nuclei count of 2.15 z-score.

Set 3
Organism: Sarcocystis neurona
Read-out: parasite activity
Tested at: 10 µM
Time: 96 h
`CSc1nc2cc(Cl)c(Oc3cccc(Cl)c3Cl)cc2[nH]1` — result for activity class: “inactive”.
Under activity class, `C[n+]1ccccc1/C=N/O` is recorded as “inactive”.
`COc1cc(CNC(=O)CCCC/C=C\C(C)C)ccc1O`: activity class “inactive”.
Under activity class, `CCOC(=O)C1=C(C)NC(C)=C(C(=O)OC)C1c1cccc([N+](=O)[O-])c1` (stereo not shown) is recorded as “inactive”.
`CCCCC1=NC2(CCCC2)C(=O)N1Cc1ccc(-c2ccccc2-c2nnn[nH]2)cc1`: activity class “inactive”.

Set 4
SMILES: CO[C@@H](C)c1c(Nc2ccc([C@@H](N(C)C(=O)C3CCS(=O)(=O)CC3)C(F)(F)F)cc2)cnc2cc(Cl)nn12
Read-out: cell-free assay
Technique: competition with immobilised ligand
Tested at: 1 µM
The remaining binding was 100% (Homeodomain-interacting protein kinase 3 (HIPK3, Homo sapiens, UniProt Q9H422)).
Casein kinase II subunit alpha (CSNK2A1, Homo sapiens, UniProt P68400) — remaining binding: 100%.
For Phosphatidylinositol 4,5-bisphosphate 3-kinase catalytic subunit alpha isoform (PIK3CA, Homo sapiens, UniProt P42336): remaining binding read 92%.
The remaining binding was 90% (Epidermal growth factor receptor (EGFR, Homo sapiens, UniProt P00533, del747-750/T751S)).
The remaining binding was 100% (Serine/threonine-protein kinase/endoribonuclease IRE1 (ERN1, Homo sapiens, UniProt O75460)).
The remaining binding was 100% (Dual specificity protein kinase CLK2 (CLK2, Homo sapiens, UniProt P49760)).
The remaining binding was 94% (Cyclin-dependent kinase 15 (CDK15, Homo sapiens, UniProt Q96Q40)).
Mitogen-activated protein kinase 13 (MAPK13, Homo sapiens, UniProt O15264) — remaining binding: 100%.
It gave 74% for remaining binding (Tyrosine-protein kinase ABL1, non-phosphorylated (ABL1, Homo sapiens, UniProt P00519)).
Serine/threonine-protein kinase 38 (STK38, Homo sapiens, UniProt Q15208) — remaining binding: 88%.
It gave 89% for remaining binding (Phosphatidylinositol 4-phosphate 5-kinase type-1 alpha (PIP5K1A, Homo sapiens, UniProt Q99755)).
For Activin receptor type-1B (ACVR1B, Homo sapiens, UniProt P36896): remaining binding read 100%.
It gave 92% for remaining binding (Mitogen-activated protein kinase 12 (MAPK12, Homo sapiens, UniProt P53778)).
It gave 100% for remaining binding (Mitogen-activated protein kinase kinase kinase 3 (MAP3K3, Homo sapiens, UniProt Q99759)).

Other studies, line by line
`Cc1cc2c(OCC(CNC(C)(C)C)OC(=O)c3ccccc3)cccc2[nH]1` (stereo not shown) has an EC50 of 526 nM (Beta-1 adrenergic receptor (ADRB1, Homo sapiens, UniProt P08588)).

For quick reference, copied from above (set 1):
With `COc1ccc(C2(CNC(=O)C(F)(F)F)CCCCC2)cc1` the remaining compound was 3.54%.
`CC(C)(CO)NCc1ccc(-c2cc(Cl)cc(Cl)c2)o1` gave a remaining compound of 69.8%.
